Measured values collected from several papers.
A part holds a random share of what one study measured. Changes are numbered by the printed parent chain.

Sample 1 — target: CCND3, cyclin fold, Cln2 fusion (human); method: yeast growth competition, sequencing; sample: yeast; setting: weak parent motif; relative to: not given; reading: higher = stronger binding
Starting sequence: CDKN1A docking peptide (human); SKACRRLFGPVDS; partner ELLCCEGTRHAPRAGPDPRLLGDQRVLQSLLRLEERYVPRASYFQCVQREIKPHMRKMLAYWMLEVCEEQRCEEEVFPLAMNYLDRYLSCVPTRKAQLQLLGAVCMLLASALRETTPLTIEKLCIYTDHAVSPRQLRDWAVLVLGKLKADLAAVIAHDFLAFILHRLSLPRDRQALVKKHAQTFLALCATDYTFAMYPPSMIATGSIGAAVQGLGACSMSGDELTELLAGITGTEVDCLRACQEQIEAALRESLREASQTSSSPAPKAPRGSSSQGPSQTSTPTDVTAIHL
`SKACMRLFGPVDS [R5M]` — result for “normalised enrichment score”: 0.0415.
`SKACRRLFGAVDS [P10A]`: “normalised enrichment score” 0.28.
`SKACRRLFTPVDS [G9T]`: “normalised enrichment score” 0.327.
Under “normalised enrichment score”, `SKACRRLFGPVRS [D12R]` is recorded as 0.0914.
`SKACRRLFGHVDS [P10H]`: “normalised enrichment score” 0.0224.
For `SKATRRLFGPVDS [C4T]`, “normalised enrichment score” read 0.515.
`SKACRRLFGPVIS [D12I]`: “normalised enrichment score” 0.367.
`SKAQRRLFGPVDS [C4Q]` — result for “normalised enrichment score”: 0.473.
Under “normalised enrichment score”, `SMACRRLFGPVDS [K2M]` is recorded as 0.763.
`SKACRRLWGPVDS [F8W]` — result for “normalised enrichment score”: 0.179.
`SKACRRLFGPQDS [V11Q]`: “normalised enrichment score” 0.265.
`SKACRRLFYPVDS [G9Y]`: “normalised enrichment score” 0.309.
`SKACRRIFGPVDS [L7I]` — result for “normalised enrichment score”: 0.102.
Under “normalised enrichment score”, `SKAIRRLFGPVDS [C4I]` is recorded as 0.47.
`SKACRRLTGPVDS [F8T]` — result for “normalised enrichment score”: -0.346.
Under “normalised enrichment score”, `SKACFRLFGPVDS [R5F]` is recorded as -0.00988.
Under “normalised enrichment score”, `SKACRRLFGPHDS [V11H]` is recorded as 0.484.
For `SKACRRLFGDVDS [P10D]`, “normalised enrichment score” read 0.0716.
For `SKACRRLFGPADS [V11A]`, “normalised enrichment score” read 0.399.
Under “normalised enrichment score”, `SSACRRLFGPVDS [K2S]` is recorded as 0.46.
Under “normalised enrichment score”, `SKACRRLFGPVAS [D12A]` is recorded as 0.104.
For `SKACRRLQGPVDS [F8Q]`, “normalised enrichment score” read 0.063.
For `SKAFRRLFGPVDS [C4F]`, “normalised enrichment score” read -0.257.
For `SQACRRLFGPVDS [K2Q]`, “normalised enrichment score” read 0.299.
`SKACRRLFGPVES [D12E]` — result for “normalised enrichment score”: 0.183.

Sample 2 — method: RNA Bind-n-Seq; form: RNA; sample: in vitro; concentration: not given; relative to: input RNA pool; reading: higher = stronger binding
Target: RING finger protein unkempt homolog, zinc fingers 1-6, GST-SBP tag (UNK, Homo sapiens, UniProt Q9C0B0, residues 30-357)
UniProt Q9C0B0, sequence (30-357, looked up): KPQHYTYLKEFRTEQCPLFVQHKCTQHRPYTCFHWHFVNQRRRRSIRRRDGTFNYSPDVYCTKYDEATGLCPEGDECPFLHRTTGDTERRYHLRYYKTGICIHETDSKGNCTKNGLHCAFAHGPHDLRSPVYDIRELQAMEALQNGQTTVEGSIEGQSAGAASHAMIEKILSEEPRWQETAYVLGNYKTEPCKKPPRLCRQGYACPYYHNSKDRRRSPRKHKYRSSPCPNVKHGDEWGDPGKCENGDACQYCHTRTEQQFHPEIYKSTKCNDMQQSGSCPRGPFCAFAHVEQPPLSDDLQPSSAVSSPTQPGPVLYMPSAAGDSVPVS
Setting: RNA with constant flanks, human and mouse sites, ends assumed
`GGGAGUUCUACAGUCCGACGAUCGAGGAGAGGAAGGCAUCUUGUACGUCGUUACAUUUAUCAUAUUGGAAGUCCCUUAAGCUCCUAGGAUUUUUAGAUGUUGAAAAUACUCCCUGCGCCCGGCAUUCAAUAUUGUAUGGUUCACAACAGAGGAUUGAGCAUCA` gave a bound/input enrichment of 1.43 ratio.
For `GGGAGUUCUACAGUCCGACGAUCGAAGAUAUAGAAGACUUAGAUCACUAUGAGAUGAAGGAAGAAGAGCCUAUUAGUGGGAAAAAGUCAGAGGAUGAAGGAAUUGAAAAAGAAAAUUUGGCAAUAUUAGAGAAAAUUAGGAAGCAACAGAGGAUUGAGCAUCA`, the bound/input enrichment was 32 ratio.
`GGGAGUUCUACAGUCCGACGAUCUGUUUGUGUGUGUGCGUGUGCGUGUGUGUGUGUGUUGGAAUUUCCUAUCUGCCUGGAUAUAUUAGCAGAGUUUGAAUGUAGUUUUGGCCUUUGGCCAUUAGACUUCUAUUAAAAUUCAUUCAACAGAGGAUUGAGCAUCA` gave a bound/input enrichment of 1.59 ratio.
The bound/input enrichment of `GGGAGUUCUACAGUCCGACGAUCAGAAAACAACCAAAACAAUUCCAAUGAAAAUUUUAGUAACAAUUGUUUAUUUUGAGGGUAUUUGUUCAUAACAUUAAAACAAUAAAGGGCUCAUAAUAAAUAAAUAUAUUUUUGACACAACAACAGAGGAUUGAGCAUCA` is reported as 1.99 ratio.
With `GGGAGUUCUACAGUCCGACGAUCCUUUAAAAGUUUAAUGAUACUUCUGAUGUUUCGGAACAGUCAUUUCACCUACUAUUUCUGAAUAUAUUUUGCAAAUUGAAUUGGAAUAGGAAUUGAUAAUAGCAGUCUUAAACAUUAGUACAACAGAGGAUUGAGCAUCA` the bound/input enrichment was 2.85 ratio.
For `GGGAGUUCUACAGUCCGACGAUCCUGGUAGAGAAGGUGCUUCCUGGGCACUUCAAUACCUUUGGUGCUGAAAGGCUUUUUCGAUUGGCUUCUAACUAUAUUUCAAAAGCUGGGAUAUGUCACAAAGUUUCUACUUUUGCCAUGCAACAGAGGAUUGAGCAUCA`, the bound/input enrichment was 0.14 ratio.
For `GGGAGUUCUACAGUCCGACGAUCACUCAUUUUGACCCAAUGGGUGUACGCACAGAUGCACCUCUGAUGCAGUUUAAAUCUAUCCUUUUAAAGUACAGCACCCCCACCUACACUGGAGGACAGUCAGAAAGCCAUGUCCAGUCACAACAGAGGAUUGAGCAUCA`, the bound/input enrichment was 0.243 ratio.
`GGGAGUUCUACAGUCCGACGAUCAGUCAUGUAGAAAAUGAAGCUUUUCCAAAGACCUCUUCAGCAACCCCACAAGAAACUCUUAUUUCUGAUGGUCCCUUCUCAGUAAAUGAACAACAGGAUCUACCACUUUUGGCAGAAGUCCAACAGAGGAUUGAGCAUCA` gave a bound/input enrichment of 0.146 ratio.
With `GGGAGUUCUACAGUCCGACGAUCCUGCUACUUUGGGCUCAGAAUGAGCUAGACCAGAAGAAAGUAAAAUAUCCCAAAAUGACAGACCUCAGCAAAGGUGUGAUUGAGGAGCCCAAGUAGAGCCUGUGCAUGGACCCAGCACUGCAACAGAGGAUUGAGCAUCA` the bound/input enrichment was 0.23 ratio.
For `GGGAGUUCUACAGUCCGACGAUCUGUUUGAAAUUGGCAGGAAAAAUGCAGCUUUCAAAUCAUUGGGGGGAGAAAAAGGAUGUCUUUCAGGAUUAUUUUAAUUAAUUUUUUUCAUAAUUGAGACAGAACUGUUUGUUAUGUACCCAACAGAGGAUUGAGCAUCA`, the bound/input enrichment was 0.79 ratio.
With `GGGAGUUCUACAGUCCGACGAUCGACCGGCCGGAGCGCCCUUGCAAGCCCCUCCUCACACUGGGCCUGGAUUAUACAGGCAUCUCGUGGAAGGAGAAGGUUGCAGACCUCCGGUUGAAAAUGGCAGAGAGGAGCAUCGCGUGGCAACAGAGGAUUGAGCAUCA` the bound/input enrichment was 0.213 ratio.

Sample 3 — method: DHFR PCA, deep sequencing; sample: yeast; together with: (+)-ABA 710 µM; relative to: wild-type fitted maximum; reading: higher = stronger binding
Target: ABI1, truncated, D143A, DHFR fusion (Arabidopsis thaliana)
Setting: methotrexate growth selection, single substitutions
Starting sequence: PYL1, truncated, DHFR fusion (Arabidopsis thaliana); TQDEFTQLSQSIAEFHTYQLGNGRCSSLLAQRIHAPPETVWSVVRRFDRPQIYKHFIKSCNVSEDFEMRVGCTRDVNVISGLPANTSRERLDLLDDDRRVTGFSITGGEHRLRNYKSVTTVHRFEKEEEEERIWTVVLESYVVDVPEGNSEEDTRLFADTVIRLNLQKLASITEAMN; partner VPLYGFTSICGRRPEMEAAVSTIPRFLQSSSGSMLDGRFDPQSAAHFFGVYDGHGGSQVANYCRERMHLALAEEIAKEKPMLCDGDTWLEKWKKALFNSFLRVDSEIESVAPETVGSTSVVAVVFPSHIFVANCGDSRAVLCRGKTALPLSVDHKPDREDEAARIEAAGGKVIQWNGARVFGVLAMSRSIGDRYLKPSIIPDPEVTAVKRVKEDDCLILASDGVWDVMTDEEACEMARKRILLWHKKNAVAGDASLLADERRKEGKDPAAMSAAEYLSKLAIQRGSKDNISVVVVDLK
`L82Q` — result for “relative binding score”: 75.4%.
`G107I` — result for “relative binding score”: 33.7%.
`D65T`: “relative binding score” 95.5%.
`I57H` — result for “relative binding score”: 55.8%.
`L20S` — result for “relative binding score”: 102%.
`L28V`: “relative binding score” 103%.
For `L169V`, “relative binding score” read 60.3%.
For `Q7F`, “relative binding score” read 96.7%.
Under “relative binding score”, `G148H` is recorded as 91.3%.
`R99W` — result for “relative binding score”: 118%.
`S27G`: “relative binding score” 102%.
For `N149S`, “relative binding score” read 98.8%.
`N61V`: “relative binding score” 105%.
For `D97P`, “relative binding score” read 104%.
`Q19M` — result for “relative binding score”: 95.9%.

Sample 4 — target: CREBRF, bZIP domain (human); method: DHFR protein complementation; sample: yeast; relative to: wild-type JUN-FOS pair; reading: higher = stronger binding
Setting: single substitutions, most at no-binding floor
Starting sequence: JUN, bZIP domain (human); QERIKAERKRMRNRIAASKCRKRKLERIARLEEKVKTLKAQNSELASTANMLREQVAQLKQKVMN; partner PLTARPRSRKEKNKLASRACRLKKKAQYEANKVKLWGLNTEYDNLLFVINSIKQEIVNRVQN
`L31Y` has a binding fitness of -1.25 natural log.
The binding fitness of `T37I` is reported as -1.53 natural log.
With `K36I` the binding fitness was -1.31 natural log.
The binding fitness of `M51W` is reported as -1.47 natural log.
With `S43T` the binding fitness was -1.37 natural log.
`R30M` has a binding fitness of -1.51 natural log.
For `A29Y`, the binding fitness was -1.43 natural log.
The binding fitness of `E32N` is reported as -1.44 natural log.
The binding fitness of `A46F` is reported as -1.53 natural log.
`V56F` gave a binding fitness of -1.46 natural log.
For `E32W`, the binding fitness was -1.55 natural log.
`N42R` gave a binding fitness of -1.46 natural log.
For `A40K`, the binding fitness was -1.37 natural log.
With `L52M` the binding fitness was -1.53 natural log.

Other studies, line by line
`PhoQ, residues 284 288 289 292 302 303 AANNSF` has a fold induction of 9.95 (PhoP, residues 12 14 15 18 19 GHCSL (Escherichia coli, UniProt P23836); Sort-seq, measured: YFP reporter; E. coli; PhoQ-PhoP variant library, together with: 10 µM Mg2+; relative to: high Mg2+ state, higher = stronger signaling).

Repeated from above (sample 1):
`SKACRRLFGHVDS [P10H]`: “normalised enrichment score” 0.0224.
For `SKATRRLFGPVDS [C4T]`, “normalised enrichment score” read 0.515.
`SKACRRLFGPVIS [D12I]`: “normalised enrichment score” 0.367.
`SKAQRRLFGPVDS [C4Q]` — result for “normalised enrichment score”: 0.473.
Under “normalised enrichment score”, `SMACRRLFGPVDS [K2M]` is recorded as 0.763.
`SKACRRLWGPVDS [F8W]` — result for “normalised enrichment score”: 0.179.
`SKACRRLFGPQDS [V11Q]`: “normalised enrichment score” 0.265.
`SKACRRLFYPVDS [G9Y]`: “normalised enrichment score” 0.309.
`SKACRRIFGPVDS [L7I]` — result for “normalised enrichment score”: 0.102.
Under “normalised enrichment score”, `SKAIRRLFGPVDS [C4I]` is recorded as 0.47.
`SKACRRLTGPVDS [F8T]` — result for “normalised enrichment score”: -0.346.
